Assay results gathered from unrelated publications.
Compare with care: the assays were run in different laboratories. ± marks the error that the study gave.
Cell line: Vero

`CC(C)OC(=O)[C@H](C)N[P@](=O)(OC[C@H]1O[C@@H](n2ccc(=O)[nH]c2=O)[C@@](F)(Br)[C@@H]1O)Oc1ccccc1` has a CC50 of > 100 µM (MTS; 4 days).
`Oc1c(Br)cc(Br)c2cccnc12` gave a CC50 of > 800 µM (cell growth or viability, CCK-8; 24 h).
For `CC[C@H](C)[C@H](NC(=O)[C@H](CC(C)C)NC(=O)CNC(=O)[C@H](Cc1c[nH]cn1)NC(=O)[C@@H](NC(=O)[C@H](Cc1ccccc1)NC(=O)[C@H](CC(N)=O)NC(=O)[C@H](Cc1c[nH]c2ccccc12)NC(=O)[C@@H](NC(=O)[C@H](Cc1c[nH]cn1)NC(=O)CNC(=O)[C@H](Cc1c[nH]c2ccccc12)NC(=O)[C@@H](N)CC(C)C)[C@@H](C)CC)C(C)C)C(N)=O`, the CC50 was 27.6 µg/mL (MTT; 48 h).
The CC50 of `NC(=O)c1ccc[n+](-c2ccccc2)c1` is reported as 73.8 µM (cell growth or viability; 72 h).
With `O=C1c2ccccc2C(=O)c2c1ccc1c2C(C(=O)Nc2ccc(Cl)cc2)C(=O)C1c1ccccc1` (stereo not shown) the CC50 was 87.16 ± 0.05 µg/mL (cytotoxicity).
For `CC[C@H](C)[C@H](NC(=O)[C@H](CC(C)C)NC(=O)CNC(=O)[C@H](CCCCN)NC(=O)[C@@H](NC(=O)[C@@H](NC(=O)[C@H](CC(N)=O)NC(=O)[C@H](Cc1c[nH]c2ccccc12)NC(=O)[C@@H](NC(=O)[C@H](CCC(=O)O)NC(=O)CNC(=O)[C@H](Cc1c[nH]c2ccccc12)NC(=O)[C@@H](N)CC(C)C)[C@@H](C)CC)[C@@H](C)O)C(C)C)C(N)=O`, the CC50 was 68.5 µg/mL (MTT; 48 h).
`O=C(CN1CCCC1)NNc1ccccc1Sc1cc(Cl)ccc1[N+](=O)[O-]` has a CC50 of > 100 µM.
For `CC[C@H](C)[C@@H]1NC(=O)[C@@H]2[C@H](CCN2C(=O)[C@@H](NC(=O)[C@@H](C)NC)[C@@H](C)CC)Oc2ccc(OC)c(c2)/C=C\NC1=O`, the CC50 was 211 µM (cell growth or viability, MTT; 48 h).
`O=c1nc(NO)ccn1[C@@H]1O[C@H](CO)[C@@H](O)[C@H]1O` has a CC50 of 12.6 µM (MTS; 4 days).
For `C[C@@H](O)[C@H](NC(=O)[C@H](Cc1ccc(O)cc1)NC(=O)[C@@H]1CCCN1C(=O)OCC1c2ccccc2-c2ccccc21)C(=O)N[C@@H](CCCNC(=N)N)C(=O)N[C@@H](CO)C(=O)NCC(=O)N1CCC[C@H]1C(=O)NCC(=O)N[C@@H](Cc1c[nH]c2ccccc12)C(=O)N[C@@H](CO)C(=O)N[C@@H](CO)C(=O)N[C@@H](Cc1c[nH]cn1)C(=O)O`, the CC50 was > 200 µg/mL (cell growth or viability, MTS; 24 h).
With `CC1(C)CCC(CN2CCN(c3ccc(C(=O)NS(=O)(=O)c4ccc(NCC5CCOCC5)c([N+](=O)[O-])c4)c(Oc4cnc5[nH]ccc5c4)c3)CC2)=C(c2ccc(Cl)cc2)C1` the CC50 was 20.6 µM (cell growth or viability, WST-1; 18 h).
For `Cc1ccc(NC(=O)C2C(=O)C(c3ccccc3)c3ccc4c(c32)C(=O)c2ccccc2C4=O)cc1` (stereo not shown), the CC50 was 91.03 ± 0.05 µg/mL (cytotoxicity).
`Cc1ccc(S(=O)(=O)NC[C@]2(C)CCC[C@]3(C)c4cc(O)c(C(C)C)cc4CC[C@@H]23)cc1` gave a CC50 of 11.5 µM (cell growth or viability, MTT; 96 h).
The CC50 of `CN1c2ccccc2C(OCCN2CCCCC2)c2cscc2S1(=O)=O` (stereo not shown) is reported as > 100 µM.
With `C[C@@H](NCCCc1cccc(C(F)(F)F)c1)c1cccc2ccccc12` the CC50 was 21.2 µM (cell growth or viability, WST-1; 18 h).
`CN1c2ccccc2C(OCCN2CCNCC2)c2sccc2S1(=O)=O` (stereo not shown) has a CC50 of > 100 µM.
`O=C1c2ccccc2C(=O)c2c1ccc1c2C(C(=O)Nc2ccccc2)C(=O)C1c1ccccc1` (stereo not shown) gave a CC50 of 54.96 ± 0.08 µg/mL (cytotoxicity).
For `CCC(CC)COC(=O)[C@H](C)N[P@](=O)(OC[C@H]1O[C@@](C#N)(c2ccc3c(N)ncnn23)[C@H](O)[C@@H]1O)Oc1ccccc1`, the CC50 was > 40 µM (cell growth or viability, WST-1; 18 h).
With `O=C(CNCCC1CCN(Cc2ccccc2)CC1)Nn1c2ccccc2c2ccccc21` the CC50 was 16.6 µM.

Excerpt of the above:
`O=c1nc(NO)ccn1[C@@H]1O[C@H](CO)[C@@H](O)[C@H]1O` has a CC50 of 12.6 µM (MTS; 4 days).
For `C[C@@H](O)[C@H](NC(=O)[C@H](Cc1ccc(O)cc1)NC(=O)[C@@H]1CCCN1C(=O)OCC1c2ccccc2-c2ccccc21)C(=O)N[C@@H](CCCNC(=N)N)C(=O)N[C@@H](CO)C(=O)NCC(=O)N1CCC[C@H]1C(=O)NCC(=O)N[C@@H](Cc1c[nH]c2ccccc12)C(=O)N[C@@H](CO)C(=O)N[C@@H](CO)C(=O)N[C@@H](Cc1c[nH]cn1)C(=O)O`, the CC50 was > 200 µg/mL (cell growth or viability, MTS; 24 h).
